Results from different studies.
A part holds a random share of what one study measured.

Study 1 — technique: protein-binding microarray; molecule type: double-stranded DNA, one strand shown; sample: in vitro; tested at: 2200 nM top; notes: 60-bp whole probe; with: salmon DNA 0.4 mg/ml; baseline: random background probes; reading: higher = stronger binding; shared flanks, not repeated: GCCTAGCAC … GTCTTGATTCGCTTGACGCTGCTG
Target: Interferon regulatory factor 7, full length, phosphomimetic (IRF7, Homo sapiens, UniProt Q92985, residues 1-503, S471D/S472D/S475D/S476D/S477D/S483D/S484D/S487D)
Construct (chain): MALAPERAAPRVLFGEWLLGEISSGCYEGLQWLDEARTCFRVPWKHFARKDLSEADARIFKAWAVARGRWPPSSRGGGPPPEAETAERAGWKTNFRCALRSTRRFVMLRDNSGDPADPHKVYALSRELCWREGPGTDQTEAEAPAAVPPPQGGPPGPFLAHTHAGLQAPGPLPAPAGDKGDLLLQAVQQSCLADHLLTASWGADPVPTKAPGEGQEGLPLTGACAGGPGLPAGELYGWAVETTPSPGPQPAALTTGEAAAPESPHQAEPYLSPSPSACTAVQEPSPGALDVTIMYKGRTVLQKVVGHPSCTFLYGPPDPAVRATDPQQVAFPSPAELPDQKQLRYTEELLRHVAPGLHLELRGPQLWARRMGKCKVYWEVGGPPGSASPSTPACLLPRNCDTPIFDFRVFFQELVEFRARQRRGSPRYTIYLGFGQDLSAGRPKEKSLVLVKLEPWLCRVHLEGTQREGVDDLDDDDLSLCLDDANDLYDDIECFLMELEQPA
| Sequence | fitted relative affinity [z-score] |
| --- | --- |
| TCACATTTCTGTTTTTGACTGTGCTAG | 3.38 |
| ATAACCTTGAACTTCGGCCTGTGCTAG | 0.234 |
| TTAGGTTTCGACTTTCGCTTAGTGCTA | 9.44 |
| GACGATTTCAGTAACGAGACGTGCTAG | 0.332 |
| TTAGGTTTCTGTTTCGGTTAGTGCTAG | 9.37 |
| GACGGTTTCGACTTTCGAGACGTGCTA | 7.96 |
| GACGAACTGCGTCTCGAGACGTGCTAG | 0.113 |
| TCTCTCCCTTTATCTCTTTTGTGCTAG | 2.59 |
| TTAGGACTGCTCTTCCTTTAGTGCTAG | 0.695 |
| TCATTTTTCTAGTCCAGACTGTGCTAG | 2.28 |
| TTAGGACTGCGTTTCGGTTAGTGCTAG | 2.51 |
| GATGATCTCAGACTGGAGACGTGCTAG | -0.00231 |
| TTGGGACTGCTACTGCTTTAGTGCTAG | 0.079 |
| TTAGGTCTCGGTCTAGGTTAGTGCTAG | 0.311 |
| ATCATTTTCTCTGTTCTAGAGTGCTAG | 2.57 |
| TTAGGTATACTTATCCTTTAGTGCTAG | 0.188 |

Study 2 — technique: aptamer microarray, sandwich; molecule type: DNA with 2'F-ANA; sample: in vitro; tested at: 200 nM; with: Cy3 exosite-II aptamer, 400 nM; reading: higher = stronger binding; sequence: GGTTGGTGTGGTTGG
Target: Prothrombin, mature alpha-thrombin (F2, Homo sapiens, UniProt P00734)
Notes: whole 15-mer aptamer, many near background
| Modification | mean fluorescence intensity [a.u.] |
| --- | --- |
| 2'F-ANA at 2 4 5 6 8 9 11 12 15 | 117 |
| 2'F-ANA at 1 2 3 4 5 11 12 14 | 47.3 |
| 2'F-ANA at 6 9 10 12 14 15 | 109 |
| 2'F-ANA at 2 3 7 10 15 | 461 |
| 2'F-ANA at 1 2 3 5 8 10 12 13 15 | 47.9 |
| 2'F-ANA at 1 6 8 9 10 11 13 14 15 | 52.2 |
| 2'F-ANA at 2 6 7 11 13 15 | 271 |
| 2'F-ANA at 2 4 5 6 9 11 12 | 117 |
| 2'F-ANA at 1 5 6 10 14 15 | 69.6 |
| 2'F-ANA at 2 3 6 7 8 9 10 13 14 | 267 |
| 2'F-ANA at 1 3 6 10 11 12 13 15 | 102 |
| 2'F-ANA at 1 2 7 8 10 13 15 | 50.8 |
| 2'F-ANA at 1 2 3 6 7 8 11 13 14 15 | 87.2 |
| 2'F-ANA at 2 6 8 11 14 | 130 |
| 2'F-ANA at 2 7 9 14 15 | 176 |
| 2'F-ANA at 1 2 5 7 12 13 | 78 |
| 2'F-ANA at 1 2 5 6 7 9 10 11 12 14 15 | 65.8 |
| 2'F-ANA at 1 3 6 7 12 15 | 494 |
| 2'F-ANA at 1 5 6 7 8 11 13 15 | 73.6 |
| 2'F-ANA at 1 3 5 7 10 11 13 14 15 | 46.1 |
| 2'F-ANA at 1 3 4 12 13 15 | 272 |
| 2'F-ANA at 8 9 10 11 12 14 15 | 105 |
| 2'F-ANA at 4 6 7 10 11 12 14 15 | 78.5 |
| 2'F-ANA at 3 4 5 8 10 11 13 14 | 68 |
| 2'F-ANA at 5 6 13 15 | 54.1 |

Study 3 — technique: RNA Bind-n-Seq; molecule type: RNA; sample: in vitro; tested at: 1 µM; notes: whole 134-nt RNA, ends assumed; with: 150 mM KCl; baseline: input library; reading: higher = stronger binding
Target: Ras GTPase-activating protein-binding protein 1, C-terminal RGG region (G3BP1, Homo sapiens, UniProt Q13283)
Sequence of UniProt Q13283 (whole entry, looked up): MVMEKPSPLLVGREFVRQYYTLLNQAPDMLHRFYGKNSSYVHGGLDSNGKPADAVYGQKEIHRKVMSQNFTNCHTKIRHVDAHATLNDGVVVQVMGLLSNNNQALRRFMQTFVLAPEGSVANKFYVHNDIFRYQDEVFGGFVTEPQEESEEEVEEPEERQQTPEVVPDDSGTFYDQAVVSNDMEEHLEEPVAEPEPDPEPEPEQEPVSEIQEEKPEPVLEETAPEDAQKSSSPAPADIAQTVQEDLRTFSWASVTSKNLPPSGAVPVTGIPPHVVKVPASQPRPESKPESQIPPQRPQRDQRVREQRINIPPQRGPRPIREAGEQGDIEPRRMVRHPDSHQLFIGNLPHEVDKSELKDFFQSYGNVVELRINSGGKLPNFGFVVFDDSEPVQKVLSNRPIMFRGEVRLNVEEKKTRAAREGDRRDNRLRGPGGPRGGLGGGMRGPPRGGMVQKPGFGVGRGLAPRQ
Shared flanks, not repeated: GGGAGUUCUACAGUCCGACGAUC … UGGAAUUCUCGGGUGUCAAGG
| Sequence | log2 enrichment |
| --- | --- |
| AAGUCCUGUGCUACACAUCGUAUGUACCGAAUCGGGGAAAGGGGAGGGGUUUGGGGAAAGUAUUAUGUUACGCCGUUCGGAUCUGCACUU | 2.16 |
| AAGUCCUGUGCUACACAUCGUAUGUACCGAAUCGGGCCCCGGGCCCCGGGCCCCGGAAAGUAUUAUGUUACGCCGUUCGGAUCUGCACUU | -0.798 |
| GCAGGAAGUAAAAACAAAUGGAAAUGCUAAAGAUAGUGGCAGGGGUGGGGGUUGCUAAGGAAAGGGUGGGAUGGGAGUGGGUAAAGAGUU | 2.1 |
| AGUCCUGUGCUACACAUCGUAUGUACCGAAUCGGGUUUUUUUGGGUUUUUGGGUGGGAAAGUAUUAUGUUACGCCGUUCGGAUCUGCACU | 0.568 |
| AGUCCUGUGCUACACAUCGUAUGUACCGAAUCGGGGCCCCGGGGCCCCGGGCCCCGGGAAAGUAUUAUGUUACGCCGUUCGGAUCUGCAC | -1.93 |
| CCAGGAAGUAAAAACAAAUGGAAAUGCUUCGGAUAGUGGCAGGGGUGGGGGUUGCUAAGGAAAGGGUGGGAUGGGAGUGGGUAAAGAGUU | 1.88 |
| UCCUGUGCUACACAUCGUAUGUACCGAAUCGGGAAAAAAGGGGAAAAAAGGAAAAAAGGGAAAGUAUUAUGUUACGCCGUUCGGAUCUGC | -1.23 |
| UUCCUCAAGUCCUGUGCUACACAUCGUAUGUACCGAAUCGGUGGUGGGUGGAAAGUAUUAUGUUACGCCGUUCGGAUCUGCACUUCCAGC | -0.362 |
| CUGUGCUACACAUCGUAUGUACCGAAUCGGGAAAAAAAGGGGAAAAAAAGGGAAAAAAAGGGAAAGUAUUAUGUUACGCCGUUCGGAUCU | -1.18 |
| UAUUAAUUUGAUAUAUUUAUUAUGAUUUGUAGAGGACGUCGGUGAUGAAGGAGAAGAAGAAAAAGAAUUCAUUUCCUAUAACAUCAACAU | -2.82 |
| UCCUGUGCUACACAUCGUAUGUACCGAAUCGGGUUUUUUUGGGAAAAAGGGAAAAAGGGAAAGUAUUAUGUUACGCCGUUCGGAUCUGCA | -0.807 |
| GCAGGAAGUAAAAACAAAUGGAAAUGCUUCGGAUAGUGGCAGGGGUGGGGGUUGCUAAGGAAAGGGUGGGAUGGGAAAGGGUAAAGAGUU | 2.13 |
| GUCCUGUGCUACACAUCGUAUGUACCGAAUCGGGGUUUUUUUGGGGAAAGGGGAGGGGAAAGUAUUAUGUUACGCCGUUCGGAUCUGCAC | 1.99 |
| CACAGACAACACGCACCCACACAGACACAGAGGGAAGGGGUAAAGAUGGGGACAGGGUGCACAGCAGGGCGGGGUAGGACCCCAGCCCCU | -0.15 |

Study 4 — technique: protein binding microarray; molecule type: double-stranded DNA, one strand shown; sample: in vitro; tested at: not given; baseline: not given; reading: higher = stronger binding
Target: Histone acetyltransferase KAT6A, winged helix 1, GST fusion (KAT6A, Homo sapiens, UniProt Q92794, residues 1-85)
Notes: 8-mer, flanks averaged, mean of 2 arrays, mostly near background
Target sequence (chain): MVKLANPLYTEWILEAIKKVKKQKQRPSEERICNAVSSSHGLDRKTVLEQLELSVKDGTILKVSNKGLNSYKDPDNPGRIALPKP
| Sequence | E-score |
| --- | --- |
| ACTTAAAC | -0.253 |
| AAGCGTGG | 0.127 |
| AAGAGAAT | -0.173 |
| AGTTCAAT | -0.0536 |
| GTGCAGAA | -0.118 |
| CAAAACCC | -0.0974 |
| CAGTTTCG | -0.0673 |
| GTATTCGA | 0.00282 |
| GCCACAGC | -0.102 |
| GGTATGGA | -0.0257 |
| AACGGGCT | 0.211 |
| CTCGTTGA | -0.135 |
| ACACCTGG | -0.208 |
| CTGGGAGA | -0.164 |
| AAAACAAG | -0.0896 |
| ATCCCCTC | -0.133 |
| AGGGCTAA | -0.0514 |

Study 5 — technique: universal PBM; molecule type: double-stranded DNA, one strand shown; sample: in vitro; tested at: 600 nM; reading: higher = stronger binding
Target: Sal-like protein 4, full length isoform A (SALL4, Homo sapiens, UniProt Q9UJQ4, residues 1-1053)
Sequence of UniProt Q9UJQ4 (whole entry, looked up): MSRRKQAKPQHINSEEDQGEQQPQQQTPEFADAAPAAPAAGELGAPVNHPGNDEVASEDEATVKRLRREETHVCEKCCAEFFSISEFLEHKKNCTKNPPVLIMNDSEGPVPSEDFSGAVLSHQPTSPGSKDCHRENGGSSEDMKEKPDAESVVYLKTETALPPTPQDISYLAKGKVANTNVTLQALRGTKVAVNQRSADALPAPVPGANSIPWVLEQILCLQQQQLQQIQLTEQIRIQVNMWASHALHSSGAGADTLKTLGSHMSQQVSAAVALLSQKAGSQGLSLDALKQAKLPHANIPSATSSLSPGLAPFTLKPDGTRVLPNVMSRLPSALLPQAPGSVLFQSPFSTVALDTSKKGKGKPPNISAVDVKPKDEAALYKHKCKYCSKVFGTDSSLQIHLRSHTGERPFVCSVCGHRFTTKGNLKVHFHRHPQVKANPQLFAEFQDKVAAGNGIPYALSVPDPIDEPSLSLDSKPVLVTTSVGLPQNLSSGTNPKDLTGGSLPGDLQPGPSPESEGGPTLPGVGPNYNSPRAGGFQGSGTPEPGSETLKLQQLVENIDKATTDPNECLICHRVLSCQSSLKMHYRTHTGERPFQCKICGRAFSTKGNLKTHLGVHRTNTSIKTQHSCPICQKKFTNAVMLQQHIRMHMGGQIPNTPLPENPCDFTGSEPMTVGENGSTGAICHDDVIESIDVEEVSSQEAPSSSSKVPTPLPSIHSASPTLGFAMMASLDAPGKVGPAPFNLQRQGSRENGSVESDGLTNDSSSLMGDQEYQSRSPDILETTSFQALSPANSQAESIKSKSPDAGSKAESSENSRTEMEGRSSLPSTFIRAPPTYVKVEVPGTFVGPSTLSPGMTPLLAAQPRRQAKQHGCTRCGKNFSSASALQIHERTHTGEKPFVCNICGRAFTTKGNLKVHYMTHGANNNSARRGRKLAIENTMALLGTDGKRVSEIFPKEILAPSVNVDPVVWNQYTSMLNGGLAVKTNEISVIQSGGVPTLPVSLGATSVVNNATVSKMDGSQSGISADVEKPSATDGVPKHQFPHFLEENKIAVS
Notes: 8-mer, flanks averaged, mean of replicates
| Sequence | E-score |
| --- | --- |
| GACCAACA | 0.0544 |
| ACCTAGCC | -0.193 |
| CAGTTCCA | -0.0511 |
| CGTCTCGA | 0.0789 |
| CAAAGCGC | -0.146 |
| ATACAGCA | 0.196 |
| ACTTTACA | 0.13 |
| CCTCTCTA | -0.273 |
| AGCCAACT | -0.136 |
| CCAGGCCG | -0.299 |
| AGTTCGCC | -0.013 |
| CGTCGGGA | -0.17 |
| AGCGAAGA | 0.039 |
| GTCGGCAC | -0.141 |
| AACTATGT | 0.132 |
| ACCAGTCG | -0.127 |
| GCGCCAAC | -0.151 |
| GAGGGCCA | -0.175 |
| ACCAATGG | -0.101 |
| AAAACTAT | 0.23 |
| GGAGTACC | -0.236 |
| ATCTTGCG | 0.0662 |
| ACACCCGC | -0.205 |
| CCCTGAGC | -0.298 |
| ACTTCTAC | 0.0724 |
